Measurements pooled from the literature.
A part holds a random share of what one study measured. Several values in a cell are separate wells, animals, samples, runs or records.
Chain of UniProt Q9H093 (whole entry, looked up): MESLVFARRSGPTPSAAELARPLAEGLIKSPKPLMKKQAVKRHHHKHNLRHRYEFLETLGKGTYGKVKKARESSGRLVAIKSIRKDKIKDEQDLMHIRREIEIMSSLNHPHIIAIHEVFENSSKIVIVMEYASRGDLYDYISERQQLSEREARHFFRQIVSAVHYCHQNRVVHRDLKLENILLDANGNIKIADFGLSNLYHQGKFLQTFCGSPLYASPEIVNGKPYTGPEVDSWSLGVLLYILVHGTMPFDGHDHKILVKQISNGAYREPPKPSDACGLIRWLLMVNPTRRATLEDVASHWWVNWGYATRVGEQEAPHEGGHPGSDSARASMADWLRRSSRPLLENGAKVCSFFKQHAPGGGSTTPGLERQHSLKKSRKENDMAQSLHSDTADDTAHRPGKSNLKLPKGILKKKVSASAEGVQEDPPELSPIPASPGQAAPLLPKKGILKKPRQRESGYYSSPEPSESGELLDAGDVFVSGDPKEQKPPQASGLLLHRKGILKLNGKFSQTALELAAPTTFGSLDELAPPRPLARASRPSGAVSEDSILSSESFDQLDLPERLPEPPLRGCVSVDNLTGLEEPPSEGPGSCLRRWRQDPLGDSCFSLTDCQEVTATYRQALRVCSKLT
Chain of UniProt Q8TD08 (whole entry, looked up): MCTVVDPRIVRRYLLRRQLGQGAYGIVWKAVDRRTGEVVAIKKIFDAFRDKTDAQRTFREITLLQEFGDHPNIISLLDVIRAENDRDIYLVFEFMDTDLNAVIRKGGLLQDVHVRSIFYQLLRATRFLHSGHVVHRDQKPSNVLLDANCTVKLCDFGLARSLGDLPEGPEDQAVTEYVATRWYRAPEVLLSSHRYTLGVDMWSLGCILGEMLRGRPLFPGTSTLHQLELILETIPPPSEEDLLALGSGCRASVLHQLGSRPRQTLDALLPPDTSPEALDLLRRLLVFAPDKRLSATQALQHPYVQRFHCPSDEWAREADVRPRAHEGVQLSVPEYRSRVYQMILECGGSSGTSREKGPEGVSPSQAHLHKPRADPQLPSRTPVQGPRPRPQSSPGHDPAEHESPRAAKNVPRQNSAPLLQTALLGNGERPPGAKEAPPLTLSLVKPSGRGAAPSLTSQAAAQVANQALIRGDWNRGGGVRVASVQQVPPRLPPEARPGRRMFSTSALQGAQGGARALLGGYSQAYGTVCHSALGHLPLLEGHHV
Chain of UniProt O00506 (whole entry, looked up): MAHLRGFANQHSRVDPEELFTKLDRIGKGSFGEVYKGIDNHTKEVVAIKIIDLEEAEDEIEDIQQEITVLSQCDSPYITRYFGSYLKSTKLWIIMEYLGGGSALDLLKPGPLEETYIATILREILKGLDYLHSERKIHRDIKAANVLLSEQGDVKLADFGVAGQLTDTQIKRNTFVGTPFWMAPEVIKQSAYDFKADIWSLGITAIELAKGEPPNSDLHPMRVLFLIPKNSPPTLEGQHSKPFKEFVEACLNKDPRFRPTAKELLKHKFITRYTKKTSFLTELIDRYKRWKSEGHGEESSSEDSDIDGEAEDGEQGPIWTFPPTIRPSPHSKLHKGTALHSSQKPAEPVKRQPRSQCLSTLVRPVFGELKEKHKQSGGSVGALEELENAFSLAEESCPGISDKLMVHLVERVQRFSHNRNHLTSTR
Chain of UniProt P46734 (whole entry, looked up): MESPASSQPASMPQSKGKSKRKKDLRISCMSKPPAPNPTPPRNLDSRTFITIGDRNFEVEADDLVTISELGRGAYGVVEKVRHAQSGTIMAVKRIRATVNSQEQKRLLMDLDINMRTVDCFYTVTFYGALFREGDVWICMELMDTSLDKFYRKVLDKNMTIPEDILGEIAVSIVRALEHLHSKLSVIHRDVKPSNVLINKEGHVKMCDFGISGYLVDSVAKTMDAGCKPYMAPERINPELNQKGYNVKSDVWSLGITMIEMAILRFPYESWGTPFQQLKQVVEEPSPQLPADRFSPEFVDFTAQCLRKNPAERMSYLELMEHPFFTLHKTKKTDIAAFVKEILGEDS
Chain of UniProt P53779 (whole entry, looked up): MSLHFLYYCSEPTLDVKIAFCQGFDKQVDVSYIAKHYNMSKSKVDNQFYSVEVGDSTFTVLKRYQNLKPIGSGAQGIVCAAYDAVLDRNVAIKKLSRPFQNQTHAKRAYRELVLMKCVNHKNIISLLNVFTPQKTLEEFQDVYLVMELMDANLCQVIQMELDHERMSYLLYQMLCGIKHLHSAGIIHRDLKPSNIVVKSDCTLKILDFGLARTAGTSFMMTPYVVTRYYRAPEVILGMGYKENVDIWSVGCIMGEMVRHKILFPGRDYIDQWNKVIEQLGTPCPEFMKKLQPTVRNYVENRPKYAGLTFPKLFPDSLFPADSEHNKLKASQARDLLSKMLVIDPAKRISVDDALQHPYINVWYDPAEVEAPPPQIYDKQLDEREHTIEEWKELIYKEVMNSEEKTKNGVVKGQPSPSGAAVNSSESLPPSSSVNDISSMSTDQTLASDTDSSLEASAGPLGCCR

Study 1
Structure (SMILES): NS(=O)(=O)c1cc(NC(=O)C2(c3ccccc3Cl)CC2)ccc1Oc1cccc(Cl)c1
Read-out: cell-free assay
Method: competition with immobilised ligand
Concentration: 1 µM
target	remaining binding [%]
MAPK10 (Homo sapiens, UniProt P53779)	100
MAPK15 (Homo sapiens, UniProt Q8TD08)	65
NUAK2 (Homo sapiens, UniProt Q9H093)	80
STK25 (Homo sapiens, UniProt O00506)	100
MAP2K3 (Homo sapiens, UniProt P46734)	84
EGFR (Homo sapiens, UniProt P00533)	75
MARK3 (Homo sapiens, UniProt P27448)	92
ITK (Homo sapiens, UniProt Q08881)	79

Study 2
Cell line: mouse MPNST tumor cells
Method: high-content nuclear imaging
Refers to: cell number
Concentration: 10 µM
Time: 12 h
Setting: mean of 2 replicates
Relative to: plate mean
Direction: higher = more cells
SMILES	nuclei count [z-score]
COc1ccc(-c2csc(NC(=O)[C@H]3CCCCN3S(=O)(=O)c3ccc(C)cc3)n2)cc1	2.92
COc1ccc(-n2c(C)c([N+](=O)[O-])c3ccc(O)cc32)cc1	1.03
Cc1c(C)c2c(c(C)c1O)CCC(C)(C(=O)O)O2 (centres unmarked)	1.02
c1ccc(Cn2c(-c3ccc(OC[C@H](C4CCNCC4)n4c(-c5ccccc5)nc5ccccc54)cc3)nc3ccccc32)cc1	-5.03
CCCCC(=O)O[C@H]1CC[C@H]2[C@@H]3CCc4cc(O)ccc4[C@H]3CC[C@]12C	-0.782
CN1CCN(c2ccc(/C=C(\C#N)c3ccccc3Br)cc2)CC1	1.57

Study 3
Compound: CC(C)(C)c1cnc(CSc2cnc(NC(=O)C3CCN(C(=O)CCCSc4cccc5c4C(=O)N(C4CCC(=O)NC4=O)C5=O)CC3)s2)o1 (centres unmarked)
Cell line: HH
Method: CCK-8
concentration	viability
250 nM	81.4% and 84.2%
200 nM	91.3% and 92.9%
1000 nM	8.71% and 6.62%
1 nM	102% and 100%

Study 4
Target: Serine/threonine-protein kinase ULK1 (ULK1, Homo sapiens, UniProt O75385)
Chain of UniProt O75385 (whole entry, looked up): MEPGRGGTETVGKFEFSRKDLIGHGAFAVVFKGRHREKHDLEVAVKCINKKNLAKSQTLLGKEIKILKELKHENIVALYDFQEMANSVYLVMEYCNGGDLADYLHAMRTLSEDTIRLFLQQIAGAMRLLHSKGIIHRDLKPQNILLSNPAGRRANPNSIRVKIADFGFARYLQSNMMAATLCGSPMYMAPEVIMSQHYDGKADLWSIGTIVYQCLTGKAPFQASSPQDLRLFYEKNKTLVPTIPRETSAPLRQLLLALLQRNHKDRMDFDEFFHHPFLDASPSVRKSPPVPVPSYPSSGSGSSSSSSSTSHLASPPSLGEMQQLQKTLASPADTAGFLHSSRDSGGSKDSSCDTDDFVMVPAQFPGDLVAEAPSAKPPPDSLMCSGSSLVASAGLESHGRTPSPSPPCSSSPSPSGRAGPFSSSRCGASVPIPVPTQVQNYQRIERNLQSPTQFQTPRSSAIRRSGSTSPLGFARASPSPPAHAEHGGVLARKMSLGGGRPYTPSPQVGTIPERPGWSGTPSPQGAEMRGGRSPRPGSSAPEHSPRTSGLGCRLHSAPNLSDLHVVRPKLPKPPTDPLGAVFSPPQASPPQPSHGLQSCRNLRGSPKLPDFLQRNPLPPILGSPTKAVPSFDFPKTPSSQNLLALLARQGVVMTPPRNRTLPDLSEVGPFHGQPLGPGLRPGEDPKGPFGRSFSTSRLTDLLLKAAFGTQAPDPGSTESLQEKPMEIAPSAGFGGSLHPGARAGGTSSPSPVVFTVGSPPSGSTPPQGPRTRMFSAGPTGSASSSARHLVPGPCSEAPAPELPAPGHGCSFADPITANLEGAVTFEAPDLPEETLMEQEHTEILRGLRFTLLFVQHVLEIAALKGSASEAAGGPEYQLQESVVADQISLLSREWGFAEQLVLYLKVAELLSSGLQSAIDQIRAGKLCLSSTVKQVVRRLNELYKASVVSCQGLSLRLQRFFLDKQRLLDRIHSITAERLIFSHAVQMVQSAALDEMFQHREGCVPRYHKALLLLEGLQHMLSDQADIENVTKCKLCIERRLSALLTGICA
Read-out: enzyme activity
Mode: inhibitor
Concentration: 0.5 µM
Relative to: control
SMILES	remaining activity [%]
NCCNc1ncc(C(N)=O)c(Nc2cccc(C(F)(F)F)c2)n1	74.1
Oc1ccc(-c2nc(-c3ccncc3)c(-c3ccc(F)cc3)[nH]2)cc1	89
CCOC(=O)c1c(C)[nH]c(/C=C2\C(=O)Nc3ccccc32)c1C	80.1
COc1cc2nccc(Oc3ccc(NC(=S)NC(=O)c4ccccc4C)cc3)c2cc1OC	95
Cn1c2ccccc2c2c3c(c4c5ccccc5n(CCC#N)c4c21)CNC3=O	106
CNC(=O)c1cc(Oc2ccc(NC(=O)Nc3ccc(Cl)c(C(F)(F)F)c3)cc2)ccn1	94.3
COc1ccc(C(=O)Nc2sc3c(c2C(N)=O)CCCC3)cc1OC	96
Cc1ccc(NC(=O)c2ccc(CN3CCN(C)CC3)cc2)cc1Nc1nc(-c2cccnc2)cs1	97.7
COc1cc2ncnc(Nc3ccc(Oc4ccccc4)cc3)c2cc1OC	89.5
Nc1ccc2ncnc(NCCc3ccc(Oc4ccccc4)cc3)c2c1	105
COc1ccc(CNC(=O)Nc2ncc([N+](=O)[O-])s2)cc1	97.7
Cc1nc(-c2ccccc2)c(-c2ccncc2)o1	84.6
Cn1sc(=O)n(Cc2ccccc2)c1=O	98.9
CO[C@H]1C[C@@H]2CC[C@@H](C)[C@@](O)(O2)C(=O)C(=O)N2CCCC[C@H]2C(=O)O[C@H]([C@H](C)C[C@@H]2CC[C@@H](O)[C@H](OC)C2)CC(=O)[C@H](C)/C=C(\C)[C@@H](O)[C@@H](OC)C(=O)[C@H](C)C[C@H](C)/C=C/C=C/C=C/1C	87.9
O=S(=O)(c1cccc2cnccc12)N1CCCNCC1	103
COc1ccc(OC)c2c(=S)c3ccccc3[nH]c12	114

Mixed results
SMILES	test	system	setting	how to read	quantity	value
CC(=O)N[C@@H](Cc1c[nH]c2ccccc12)C(=O)N[C@@H](CCC(=O)C=[N+]=[N-])C(=O)OC(C)C	UPLC-MS/MS	EL4 tumor, C57BL/6 CES1-/- mice, tumor	subcutaneous, 0.3 mg/kg DON equivalent daily, 5 days	higher = more metabolite	ribose 1-phosphate level	6.97e+06 a.u. and 6.12e+06 a.u. and 9.56e+06 a.u. and 7.4e+06 a.u. and 7.65e+06 a.u. and 7.47e+06 a.u.

A few entries again (study 4):
SMILES	remaining activity [%]
CO[C@H]1C[C@@H]2CC[C@@H](C)[C@@](O)(O2)C(=O)C(=O)N2CCCC[C@H]2C(=O)O[C@H]([C@H](C)C[C@@H]2CC[C@@H](O)[C@H](OC)C2)CC(=O)[C@H](C)/C=C(\C)[C@@H](O)[C@@H](OC)C(=O)[C@H](C)C[C@H](C)/C=C/C=C/C=C/1C	87.9
O=S(=O)(c1cccc2cnccc12)N1CCCNCC1	103
COc1ccc(OC)c2c(=S)c3ccccc3[nH]c12	114
